{"data": "Measurements collected from several papers", "note": "± gives the spread as reported."}
{"SMILES": "CC[C@H](C)[C@@H]1NC(=O)[C@H](CCC(N)=O)NC(=O)[C@H](CCC(N)=O)NC(=O)[C@@H]2CCCN2C(=O)[C@@H]2CCCN2C(=O)[C@H](CO)NC(=O)[C@H](CCSC)NC(=O)[C@H](CCCNC(=N)N)NC(=O)[C@H]([C@@H](C)O)NC(=O)[C@H]([C@@H](C)O)NC(=O)[C@H](Cc2ccccc2)NC(=O)[C@@H](NC(=O)[C@@H](CO)NC(=O)[C@@H](Cc2ccccc2)NC(=O)[C@@H](CC(C)C)NC(=O)[C@@H]2CCCN2C(=O)[C@@H](CC(C)C)NC(=O)[C@@H](Cc2ccccc2)NC(=O)[C@@H](CCC(=O)O)NC(=O)[C@@H](C)NC(=O)[C@@H](Cc2ccccc2)NC(=O)[C@H](N)C(C)C)CSSC[C@@H](C(=O)N[C@@H](CC(C)C)C(=O)N[C@@H](CC(N)=O)C(N)=O)NC1=O", "test system": "20% human plasma", "setting": "0.5 mg/mL, 72 h, pH 7.4, 37 °C", "endpoint": "remaining intact peptide", "value": "~50%"}
{"SMILES": "CC[C@H](C)[C@@H]1NC(=O)[C@H](CCCCN)NC(=O)[C@H](CCCCN)NC(=O)[C@H](Cc2ccc(O)cc2)NC(=O)[C@H](CC(C)C)NC(=O)[C@@H]2CCCN2C(=O)[C@H](C)NC(=O)CNC(=O)CNC(=O)[C@H](CO)NC(=O)CNC(=O)CNC(=O)[C@H](CO)NC(=O)[C@H](CCCCN)NC(=O)[C@H](CC(C)C)NC(=O)[C@H](CC(C)C)NC(=O)[C@H](CCCCN)NC(=O)[C@H](CCCNC(=N)N)NC(=O)[C@H]([C@@H](C)CC)NC(=O)[C@H]([C@@H](C)CC)NC(=O)[C@H](CCCCN)NC(=O)[C@H](CCCCN)NC(=O)[C@H](Cc2ccc(O)cc2)NC(=O)[C@H](CC(C)C)NC(=O)[C@@H]2CCCN2C(=O)CNC(=O)CNC(=O)[C@@H](NC(=O)CN)CSSC[C@@H](C(N)=O)NC(=O)[C@H](CC(C)C)NC(=O)[C@H](CCCCN)NC(=O)[C@H](CCCNC(=N)N)NC(=O)[C@H]([C@@H](C)CC)NC1=O", "test system": "25% human serum", "setting": "50 µM, 24 h", "how to read": "reference: 0 h control", "endpoint": "remaining intact peptide", "value": "1.2 ± 0.1%"}
{"SMILES": "CC(C)[C@@H]1NC(=O)CNC(=O)[C@H](CC(N)=O)NC(=O)[C@H](CCCNC(=N)N)NC(=O)[C@H](Cc2ccc(O)cc2)NC(=O)[C@H](C(C)C)NC(=O)[C@@H](NC(=O)[C@@H](NC(=O)[C@H](CC(N)=O)NC(=O)[C@H](Cc2c[nH]c3ccccc23)NC(=O)[C@H](C)NC(=O)[C@H](Cc2ccccc2)NC(=O)CNC(=O)[C@H](CCCCN)NC(=O)[C@H](Cc2ccccc2)NC(=O)[C@H](Cc2ccccc2)NC(=O)[C@H](CCCCN)NC(=O)OCC2c3ccccc3-c3ccccc32)C(C)C)CSSC[C@@H](C(=O)N[C@@H](Cc2c[nH]cn2)C(=O)N[C@@H](CCCNC(=N)N)C(=O)N[C@@H](CCCNC(=N)N)C(=O)N[C@@H](C)C(=O)N[C@@H](CC(N)=O)C(N)=O)NC(=O)[C@H](C(C)C)NC(=O)[C@H](CCCNC(=N)N)NC1=O", "test system": "trypsin 1 % w/v", "setting": "2560 µM, 6 h", "endpoint": "remaining peptide", "value": "39.8%"}
{"SMILES": "CC(C)C[C@@H](N)C(=O)NCC(=O)N[C@H](C)C(=O)N[C@H](CO)C(=O)N[C@H](Cc1c[nH]c2ccccc12)C(=O)N[C@H](Cc1c[nH]cn1)C(=O)N[C@H](CCCNC(=N)N)C(=O)N1CCC[C@@H]1C(=O)N[C@H](CC(=O)O)C(=O)N[C@H](CCCCN)C(=O)N[C@H](CS)C(=O)N[C@H](CS)C(=O)N[C@H](CC(C)C)C(=O)NCC(=O)N[C@H](Cc1ccc(O)cc1)C(=O)N[C@H](CCC(N)=O)C(=O)N[C@H](CCCCN)C(=O)N[C@H](CCCNC(=N)N)C(=O)N1CCC[C@@H]1C(=O)N[C@H](CC(C)C)C(=O)N1CCC[C@@H]1C(N)=O", "test": "RP-HPLC", "test system": "cell culture medium", "setting": "48 h", "endpoint": "remaining intact compound", "value": "~77%"}
{"SMILES": "CC[C@H](C)[C@@H]1NC(=O)[C@H](CCCCN)NC(=O)[C@H](CCCCN)NC(=O)[C@H](Cc2ccc(O)cc2)NC(=O)[C@H](CC(C)C)NC(=O)[C@@H]2CCCN2C(=O)[C@H](C)NC(=O)CNC(=O)CNC(=O)[C@H](CO)NC(=O)CNC(=O)CNC(=O)[C@H](CO)NC(=O)[C@H](CCC(=O)O)NC(=O)[C@H](CC(C)C)NC(=O)[C@H](CC(C)C)NC(=O)[C@H](CCCCN)NC(=O)[C@H](CCCCN)NC(=O)[C@H]([C@@H](C)CC)NC(=O)[C@H]([C@@H](C)CC)NC(=O)[C@H](CCCCN)NC(=O)[C@H](CCCCN)NC(=O)[C@H](Cc2ccc(O)cc2)NC(=O)[C@H](CC(C)C)NC(=O)[C@@H]2CCCN2C(=O)[C@H](C)NC(=O)CNC(=O)[C@@H]2CSSC[C@H](NC(=O)[C@H](CC(C)C)NC(=O)[C@H](CCCCN)NC(=O)[C@H](CCCCN)NC(=O)[C@H]([C@@H](C)CC)NC1=O)C(=O)N[C@@H](CCCCN)C(=O)N[C@@H](CC(N)=O)C(=O)NCC(=O)N2", "test system": "25% human serum", "setting": "50 µM, 24 h", "how to read": "reference: 0 h control", "endpoint": "remaining intact peptide", "value": "40.5 ± 4.3%"}
{"SMILES": "CSCC[C@H](NC(=O)CNC(=O)[C@H](CC(=O)O)NC(=O)[C@@H](NC(=O)[C@@H](NC(=O)[C@@H](NC(=O)CNC(=O)[C@H](CCC(=O)O)NC(=O)[C@H](CCSC)NC(=O)[C@H](CC(=O)O)NC(=O)[C@H](C)NC(=O)[C@H](C)NC(=O)[C@@H](NC(=O)[C@H](CO)NC(=O)[C@@H](N)CC(C)C)[C@@H](C)O)C(C)C)C(C)C)[C@@H](C)O)C(=O)N[C@@H](C)C(=O)N[C@@H](CO)C(=O)NCC(=O)N[C@@H](CC(C)C)C(=O)N[C@@H](CC(=O)O)C(=O)N[C@@H](CCCCN)C(=O)N[C@@H](CC(=O)O)C(=O)N[C@@H](Cc1ccc(O)cc1)C(=O)N[C@@H](CC(C)C)C(=O)N[C@@H](CCCCN)C(=O)N1CCC[C@H]1C(=O)N[C@@H](CC(=O)O)C(=O)N[C@@H](CC(=O)O)C(=O)O", "test": "LC-MS/MS", "test system": "mouse serum", "setting": "10 µg/mL, 24 h, 37 °C", "endpoint": "remaining compound", "value": "68%"}
{"SMILES": "CC[C@H](C)[C@H](N)C(=O)N[C@@H](CC(N)=O)C(=O)N[C@H]1CNC(=O)[C@H](CC(C)C)NC(=O)[C@H](CC(C)C)NC(=O)[C@H](Cc2ccccc2)NC(=O)[C@H](C)NC1=O", "test": "HPLC", "test system": "ammonium carbonate", "setting": "72 h, pH 8.0, 37 °C", "endpoint": "remaining intact peptide", "value": "> 60%"}
{"SMILES": "O=C(O)Cc1cccc(OC(=O)NCCCCCn2ccc3ccc(F)cc32)c1", "test system": "porcine plasma", "setting": "20 µM, 0.5 h, 37 °C", "endpoint": "remaining parent compound", "value": "83 ± 5%"}
{"SMILES": "CC[C@H](C)[C@@H]1NC(=O)[C@H](CCCCN)NC(=O)[C@H](CCCCN)NC(=O)[C@H](Cc2ccc(O)cc2)NC(=O)[C@H](CC(C)C)NC(=O)[C@@H]2CCCN2C(=O)CNC(=O)CNC(=O)[C@@H](N)CSSC[C@@H](C(=O)N[C@@H](CCC(=O)O)C(=O)N[C@@H](CO)C(N)=O)NC(=O)[C@H](CC(C)C)NC(=O)[C@H](CCCCN)NC(=O)[C@H](CCCCN)NC(=O)[C@H]([C@@H](C)CC)NC(=O)[C@H]([C@@H](C)CC)NC(=O)[C@H](CCCCN)NC(=O)[C@H](CCCCN)NC(=O)[C@H](Cc2ccc(O)cc2)NC(=O)[C@H](CC(C)C)NC(=O)[C@@H]2CCCN2C(=O)[C@H](C)NC(=O)CNC(=O)CNC(=O)[C@H](CO)NC(=O)CNC(=O)CNC(=O)[C@H](CO)NC(=O)[C@H](CCC(=O)O)NC(=O)[C@H](CC(C)C)NC(=O)[C@H](CC(C)C)NC(=O)[C@H](CCCCN)NC(=O)[C@H](CCCCN)NC(=O)[C@H]([C@@H](C)CC)NC1=O", "test system": "25% human serum", "setting": "50 µM, 24 h", "how to read": "reference: 0 h control", "endpoint": "remaining intact peptide", "value": "65.4 ± 3.4%"}
{"SMILES": "O=C(NCCCCCn1ccc2ccc(F)cc21)Oc1ccccc1F", "test system": "porcine plasma", "setting": "20 µM, 0.5 h, 37 °C", "endpoint": "remaining parent compound", "value": "19 ± 6%"}
{"SMILES": "N[C@@H](Cc1ccc(O)cc1)C(=O)N1CCC[C@H]1C(=O)NCC(=O)NCC(=O)O", "test": "diketopiperazine formation, ESI-MS", "test system": "1-propanol", "setting": "5 µM, 90 min, 70 °C, 0.5% acetic acid", "how to read": "reference: initial signal", "endpoint": "remaining peptide", "value": "55%"}
{"SMILES": "CC(C)C[C@@H]1NC(=O)[C@@H]2CCCN2C(=O)[C@H](Cc2c[nH]c3ccccc23)NC(=O)[C@@H]2CCCN2C(=O)[C@H](Cc2ccccc2)NC(=O)[C@H](CC(=O)O)NC(=O)[C@H](C)NC(=O)[C@@H]2CSSC[C@H](NC(=O)[C@H](CCC(N)=O)NC(=O)[C@H](Cc3c[nH]cn3)NC(=O)CNC1=O)C(=O)N[C@@H](Cc1ccccc1)C(=O)N1CCC[C@H]1C(=O)N[C@@H](CC(=O)O)C(=O)NCC(=O)N[C@@H](Cc1ccccc1)C(=O)N[C@H]1CSSC[C@H](NC(=O)[C@H](CO)NC(=O)[C@H](Cc3c[nH]cn3)NC(=O)[C@H](Cc3c[nH]cn3)NC(=O)[C@H](Cc3c[nH]c4ccccc34)NC1=O)C(=O)N[C@@H](C(C)C)C(=O)N1CCC[C@H]1C(=O)N[C@@H](CO)C(=O)NCC(=O)N[C@@H]([C@@H](C)O)C(=O)N2", "test": "LC-MS/MS", "test system": "human male pooled serum", "setting": "50 µg/mL, 24 h, 37 °C", "endpoint": "remaining intact", "value": "> 50%"}
{"SMILES": "CC[C@H](C)[C@@H]1NC(=O)[C@H](CCCCN)NC(=O)[C@H](CCCCN)NC(=O)[C@H](Cc2ccc(O)cc2)NC(=O)[C@H](CC(C)C)NC(=O)[C@@H]2CCCN2C(=O)[C@H](C)NC(=O)CNC(=O)CNC(=O)[C@H](CO)NC(=O)CNC(=O)CNC(=O)[C@H](CO)NC(=O)[C@H](CCC(=O)O)NC(=O)[C@H](CC(C)C)NC(=O)[C@H](CC(C)C)NC(=O)[C@H](CCCCN)NC(=O)[C@H](CCCCN)NC(=O)[C@H]([C@@H](C)CC)NC(=O)[C@H]([C@@H](C)CC)NC(=O)[C@H](CCCCN)NC(=O)[C@H](CCCCN)NC(=O)[C@H](Cc2ccc(O)cc2)NC(=O)[C@H](CC(C)C)NC(=O)[C@@H]2CCCN2C(=O)[C@H](C)NC(=O)CNC(=O)[C@@H]2CSSC[C@H](NC(=O)[C@H](CC(C)C)NC(=O)[C@H](CCCCN)NC(=O)[C@H](CCCCN)NC(=O)[C@H]([C@@H](C)CC)NC1=O)C(=O)N[C@@H](CCC(=O)O)C(=O)N[C@@H](CC(N)=O)C(=O)NCC(=O)N2", "test system": "25% human serum", "setting": "50 µM, 24 h", "how to read": "reference: 0 h control", "endpoint": "remaining intact peptide", "value": "73.7 ± 6.9%"}
{"note": "Some of these lines once more:"}
{"SMILES": "CC(C)C[C@@H](N)C(=O)NCC(=O)N[C@H](C)C(=O)N[C@H](CO)C(=O)N[C@H](Cc1c[nH]c2ccccc12)C(=O)N[C@H](Cc1c[nH]cn1)C(=O)N[C@H](CCCNC(=N)N)C(=O)N1CCC[C@@H]1C(=O)N[C@H](CC(=O)O)C(=O)N[C@H](CCCCN)C(=O)N[C@H](CS)C(=O)N[C@H](CS)C(=O)N[C@H](CC(C)C)C(=O)NCC(=O)N[C@H](Cc1ccc(O)cc1)C(=O)N[C@H](CCC(N)=O)C(=O)N[C@H](CCCCN)C(=O)N[C@H](CCCNC(=N)N)C(=O)N1CCC[C@@H]1C(=O)N[C@H](CC(C)C)C(=O)N1CCC[C@@H]1C(N)=O", "test": "RP-HPLC", "test system": "cell culture medium", "setting": "48 h", "endpoint": "remaining intact compound", "value": "~77%"}
